Published values pooled from the literature.

Structure (SMILES) | target or system | assay | system | conditions | measurement | value
CC1(C)SC2C(NC(=O)C(NC(=O)C3=C(O)C(Cc4ccsc4)NC3=O)c3ccccc3)C(=O)N2C1C(=O)O (stereo not shown) | Escherichia coli | broth microdilution | ATCC 25922 wild type | together with: clavulanic acid 6 µg/mL | MIC | 6.25 µg/mL
COc1cc(C=O)ccc1OC1=C(Cl)C(=O)c2ccccc2C1=O | Bacillus cereus | broth microdilution | MTCC 430 | – | MIC | 10 µg/mL
C=CCO/N=c1\cc2n(-c3ccc(Cl)cc3)c3ccccc3nc-2cc1Nc1ccc(Cl)cc1 | Mycobacteroides abscessus | bacterial growth | clinical isolate | – | MIC | > 30 µM
CC(C)(O/N=C(\C(=O)N[C@@H]1C(=O)N2C(C(=O)[O-])=C(C[n+]3ccccc3)CS[C@H]12)c1csc(N)n1)C(=O)O | THP-1 | pyroptotic LDH release | – | 2 µM, 40 min, together with: LPS then nigericin | inhibition | -1.07%
N=C(N)c1cccc(OCc2ccc(COc3cccc(C(=N)N)c3)cc2)c1 | Escherichia coli | – | 552100 | in combination, checkerboard, together with: rifampicin | MIC | 50 µg/mL
O/N=c1\cc2n(-c3ccc(Cl)cc3)c3ccccc3nc-2cc1Nc1ccc(Cl)cc1 | Mycobacteroides abscessus | bacterial growth | clinical isolate | – | MIC | > 30 µM
O=c1c(O)c(-c2ccc(O)cc2)oc2cc(O[C@@H]3O[C@H](CO)[C@@H](O)[C@H](O)[C@H]3O)cc(O)c12 | Streptococcus gordonii | – | ATCC 51656 | – | MIC | 100 µg/mL
CNC(C)C1CCC(N)C(OC2C(N)CC(N)C(OC3OCC(C)(O)C(NC)C3O)C2O)O1 (stereo not shown) | Pseudomonas aeruginosa | – | clinical isolate RKI-No_480/15 | – | MIC | > 8 µg/mL
O=C(CNc1ccc(Cl)cc1)NC1C2CC3CC(C2)CC1C3 (stereo not shown) | Mycobacteroides abscessus | broth microdilution | – | 120 h | MIC | inactive
C[C@H](NC(=O)CO/N=c1\cc2n(-c3ccc(Cl)cc3)c3ccccc3nc-2cc1Nc1ccc(Cl)cc1)C(=O)OC(C)(C)C | Mycobacteroides abscessus | bacterial growth | ATCC 19977 | – | MIC | > 30 µM
COc1cccc(CNc2ccc(C(=O)O)cc2)c1 | Enterococcus | – | – | – | MIC | 256 µg/mL
O=C(O)CO/N=c1\cc2n(-c3ccc(Cl)cc3)c3ccccc3nc-2cc1Nc1ccc(Cl)cc1 | Mycobacteroides abscessus | bacterial growth | ATCC 19977 | – | MIC | > 30 µM
C#CCOC(=O)ON=C1C=CC(=C(C#N)c2ccccc2)C=C1 | Candida parapsilosis | broth dilution | ATCC 22099 | 48 h, 37 °C | MIC | 16 µg/mL
N=C(N)c1ccc(OCc2cc(Br)cc(COc3ccc(C(=N)N)cc3)c2)cc1 | Escherichia coli | – | W3110 | in combination, checkerboard, together with: rifampicin | MIC | 3.13 µg/mL
CCCCCCCCCC(=O)N[C@@H](Cc1c[nH]c2ccccc12)C(=O)N[C@H](CC(N)=O)C(=O)N[C@@H](CC(=O)O)C(=O)N[C@@H]1C(=O)NCC(=O)N[C@@H](CCCN)C(=O)N[C@@H](CC(=O)O)C(=O)N[C@H](C)C(=O)N[C@@H](CC(=O)O)C(=O)NCC(=O)N[C@H](CO)C(=O)N[C@@H]([C@H](C)CC(=O)O)C(=O)N[C@@H](CC(=O)c2ccccc2N)C(=O)O[C@@H]1C | Enterococcus | broth microdilution | VRE 155, Mueller-Hinton broth, Mg2+ 10 mg/L | 16 h, together with: Ca2+ 10 mM | MIC | 0.125 µg/mL
c1ccc(CNc2ncnc3nc[nH]c23)cc1 | THP-1 | pyroptotic LDH release | – | 2 µM, 40 min, together with: LPS then nigericin | inhibition | 20.3%
OC(Cn1cncn1)(Cn1cncn1)c1ccc(F)cc1F | Candida parapsilosis | – | CP1 | – | MIC | 1 µg/mL
CCOC(=O)CNC(=O)CO/N=c1\cc2n(-c3ccc(Cl)cc3)c3ccccc3nc-2cc1Nc1ccc(Cl)cc1 | Mycobacteroides abscessus | bacterial growth | clinical isolate | – | MIC | > 30 µM
CC1(C)SC2C(NC(=O)C(NC(=O)C3=C(O)C(Cc4ccccc4)NC3=O)c3ccccc3)C(=O)N2C1C(=O)O (stereo not shown) | Escherichia coli | broth microdilution | ATCC 25922 wild type | together with: clavulanic acid 6 µg/mL | MIC | 6.25 µg/mL
N=C(N)c1ccc(OCc2ccc(-c3ccccc3)cc2COc2ccc(C(=N)N)cc2)cc1 | Escherichia coli | – | mcr-2 polymyxin-resistant | 20 h, compound alone | MIC | 25 µg/mL
CC(=O)N1CCN(c2ccc(OCC3COC(Cn4ccnc4)(c4ccc(Cl)cc4Cl)O3)cc2)CC1 (stereo not shown) | Candida parapsilosis | broth dilution | ATCC 22099 | 48 h, 37 °C | MIC | 8 µg/mL
CC1CCC(C(C)C)C(OC2=C(Cl)C(=O)c3ccccc3C2=O)C1 (stereo not shown) | Bacillus cereus | broth microdilution | MTCC 430 | – | MIC | 12 µg/mL
O=C(O)c1ccc(NCc2ccc(Cl)cc2)cc1 | Enterococcus | – | – | – | MIC | 128 µg/mL
Clc1ccc(Nc2cc3nc4ccccc4n(-c4ccc(Cl)cc4)c-3c/c2=N\OCc2ccccc2)cc1 | Mycobacteroides abscessus | bacterial growth | ATCC 19977 | – | MIC | > 30 µM
CC(=O)NC[C@H]1CN(c2ccc(N3CCOCC3)c(F)c2)C(=O)O1 | Staphylococcus epidermidis | – | MRSE-8, methicillin-resistant | – | MIC | 1 µg/mL

For quick reference, copied from above:
Structure (SMILES) | target or system | assay | system | conditions | measurement | value
CNC(C)C1CCC(N)C(OC2C(N)CC(N)C(OC3OCC(C)(O)C(NC)C3O)C2O)O1 (stereo not shown) | Pseudomonas aeruginosa | – | clinical isolate RKI-No_480/15 | – | MIC | > 8 µg/mL
O=C(CNc1ccc(Cl)cc1)NC1C2CC3CC(C2)CC1C3 (stereo not shown) | Mycobacteroides abscessus | broth microdilution | – | 120 h | MIC | inactive
